Experimental data gathered from unrelated publications.
Several values in a cell are separate wells, animals, samples, runs or records.
UniProt P14416, sequence (whole entry, looked up): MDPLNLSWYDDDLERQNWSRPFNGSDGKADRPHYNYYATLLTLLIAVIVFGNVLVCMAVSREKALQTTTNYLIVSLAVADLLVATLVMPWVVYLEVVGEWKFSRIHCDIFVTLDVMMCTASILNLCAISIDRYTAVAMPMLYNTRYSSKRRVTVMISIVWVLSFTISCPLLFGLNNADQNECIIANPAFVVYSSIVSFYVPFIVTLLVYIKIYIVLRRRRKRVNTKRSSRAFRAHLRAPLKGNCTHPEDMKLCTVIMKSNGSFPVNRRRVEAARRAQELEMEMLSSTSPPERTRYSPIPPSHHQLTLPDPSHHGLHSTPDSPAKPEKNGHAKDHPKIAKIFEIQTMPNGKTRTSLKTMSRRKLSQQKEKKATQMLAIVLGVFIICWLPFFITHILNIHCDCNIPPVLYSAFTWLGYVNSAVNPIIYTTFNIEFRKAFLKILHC
UniProt P35520, sequence (whole entry, looked up): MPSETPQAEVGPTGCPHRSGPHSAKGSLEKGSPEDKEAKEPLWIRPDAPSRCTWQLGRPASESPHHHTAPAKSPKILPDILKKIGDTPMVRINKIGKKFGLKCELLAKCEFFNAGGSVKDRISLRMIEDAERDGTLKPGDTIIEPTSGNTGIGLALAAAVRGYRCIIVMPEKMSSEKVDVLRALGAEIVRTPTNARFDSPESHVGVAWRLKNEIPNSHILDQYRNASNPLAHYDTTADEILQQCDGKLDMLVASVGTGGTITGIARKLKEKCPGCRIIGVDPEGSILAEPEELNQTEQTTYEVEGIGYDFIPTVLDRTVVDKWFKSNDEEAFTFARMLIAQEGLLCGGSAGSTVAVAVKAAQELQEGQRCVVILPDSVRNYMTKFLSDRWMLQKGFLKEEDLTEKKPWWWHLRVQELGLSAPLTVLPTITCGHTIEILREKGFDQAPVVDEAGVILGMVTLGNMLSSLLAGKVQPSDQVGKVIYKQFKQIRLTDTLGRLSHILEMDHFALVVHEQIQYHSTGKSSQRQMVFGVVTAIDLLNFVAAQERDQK
UniProt P36896, sequence (whole entry, looked up): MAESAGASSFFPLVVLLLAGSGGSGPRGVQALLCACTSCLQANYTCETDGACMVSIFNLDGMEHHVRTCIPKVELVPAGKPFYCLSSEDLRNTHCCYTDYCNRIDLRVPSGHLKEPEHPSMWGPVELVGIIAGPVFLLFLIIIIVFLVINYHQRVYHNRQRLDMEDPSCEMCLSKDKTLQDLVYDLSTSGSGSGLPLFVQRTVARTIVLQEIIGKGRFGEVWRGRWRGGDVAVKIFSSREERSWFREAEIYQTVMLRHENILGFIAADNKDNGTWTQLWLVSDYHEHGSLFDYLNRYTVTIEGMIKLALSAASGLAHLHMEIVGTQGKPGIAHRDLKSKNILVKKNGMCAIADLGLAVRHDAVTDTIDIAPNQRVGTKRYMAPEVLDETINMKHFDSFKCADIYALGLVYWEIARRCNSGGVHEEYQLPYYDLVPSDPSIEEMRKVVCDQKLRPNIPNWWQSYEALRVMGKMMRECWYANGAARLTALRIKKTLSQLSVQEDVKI
UniProt O14965, sequence (whole entry, looked up): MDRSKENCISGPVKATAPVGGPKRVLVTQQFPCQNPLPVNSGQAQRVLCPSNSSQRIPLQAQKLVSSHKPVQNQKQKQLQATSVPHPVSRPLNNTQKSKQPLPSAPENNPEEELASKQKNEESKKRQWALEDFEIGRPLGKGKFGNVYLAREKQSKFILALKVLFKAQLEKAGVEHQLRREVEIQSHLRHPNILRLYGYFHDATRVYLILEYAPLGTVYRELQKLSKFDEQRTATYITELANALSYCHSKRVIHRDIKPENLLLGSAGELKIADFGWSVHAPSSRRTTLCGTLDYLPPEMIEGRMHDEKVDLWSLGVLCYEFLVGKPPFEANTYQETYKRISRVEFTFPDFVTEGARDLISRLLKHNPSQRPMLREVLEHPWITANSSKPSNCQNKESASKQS
UniProt Q8IU85, sequence (whole entry, looked up): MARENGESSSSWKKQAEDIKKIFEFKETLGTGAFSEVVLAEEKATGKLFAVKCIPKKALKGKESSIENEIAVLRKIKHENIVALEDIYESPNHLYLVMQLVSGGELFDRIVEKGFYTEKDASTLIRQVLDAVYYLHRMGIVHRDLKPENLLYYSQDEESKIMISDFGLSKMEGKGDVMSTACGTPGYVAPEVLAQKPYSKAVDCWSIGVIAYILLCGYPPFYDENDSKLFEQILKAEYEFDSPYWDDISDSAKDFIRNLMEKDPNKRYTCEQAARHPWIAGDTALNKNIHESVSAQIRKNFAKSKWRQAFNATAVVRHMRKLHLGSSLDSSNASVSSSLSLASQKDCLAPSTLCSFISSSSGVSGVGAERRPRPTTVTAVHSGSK
UniProt P24723, sequence (whole entry, looked up): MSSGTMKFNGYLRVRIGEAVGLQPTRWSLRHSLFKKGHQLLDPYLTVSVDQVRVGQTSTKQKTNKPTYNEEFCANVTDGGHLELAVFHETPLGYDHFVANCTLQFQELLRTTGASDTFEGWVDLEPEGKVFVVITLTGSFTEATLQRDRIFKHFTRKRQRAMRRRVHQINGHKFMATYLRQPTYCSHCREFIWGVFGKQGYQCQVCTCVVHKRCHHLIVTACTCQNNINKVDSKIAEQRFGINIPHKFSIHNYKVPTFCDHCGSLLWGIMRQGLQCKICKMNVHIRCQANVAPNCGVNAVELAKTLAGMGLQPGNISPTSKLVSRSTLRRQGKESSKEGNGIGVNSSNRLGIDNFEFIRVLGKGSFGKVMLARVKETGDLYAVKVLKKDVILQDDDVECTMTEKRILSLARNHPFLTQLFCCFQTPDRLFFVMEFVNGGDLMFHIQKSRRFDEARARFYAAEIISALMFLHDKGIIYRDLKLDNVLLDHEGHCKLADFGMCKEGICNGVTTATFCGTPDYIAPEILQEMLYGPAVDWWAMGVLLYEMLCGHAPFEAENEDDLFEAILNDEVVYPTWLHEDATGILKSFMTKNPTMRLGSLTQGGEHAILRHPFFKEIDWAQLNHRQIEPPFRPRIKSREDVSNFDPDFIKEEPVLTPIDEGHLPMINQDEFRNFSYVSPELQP
UniProt P09417, sequence (whole entry, looked up): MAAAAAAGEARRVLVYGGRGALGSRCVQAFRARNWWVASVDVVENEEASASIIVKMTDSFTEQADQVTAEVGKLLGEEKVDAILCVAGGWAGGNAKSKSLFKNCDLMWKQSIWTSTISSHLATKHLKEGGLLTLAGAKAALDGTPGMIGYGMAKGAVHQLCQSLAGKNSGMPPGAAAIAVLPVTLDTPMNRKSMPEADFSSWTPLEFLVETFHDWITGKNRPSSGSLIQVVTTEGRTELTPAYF
UniProt O00571, sequence (whole entry, looked up): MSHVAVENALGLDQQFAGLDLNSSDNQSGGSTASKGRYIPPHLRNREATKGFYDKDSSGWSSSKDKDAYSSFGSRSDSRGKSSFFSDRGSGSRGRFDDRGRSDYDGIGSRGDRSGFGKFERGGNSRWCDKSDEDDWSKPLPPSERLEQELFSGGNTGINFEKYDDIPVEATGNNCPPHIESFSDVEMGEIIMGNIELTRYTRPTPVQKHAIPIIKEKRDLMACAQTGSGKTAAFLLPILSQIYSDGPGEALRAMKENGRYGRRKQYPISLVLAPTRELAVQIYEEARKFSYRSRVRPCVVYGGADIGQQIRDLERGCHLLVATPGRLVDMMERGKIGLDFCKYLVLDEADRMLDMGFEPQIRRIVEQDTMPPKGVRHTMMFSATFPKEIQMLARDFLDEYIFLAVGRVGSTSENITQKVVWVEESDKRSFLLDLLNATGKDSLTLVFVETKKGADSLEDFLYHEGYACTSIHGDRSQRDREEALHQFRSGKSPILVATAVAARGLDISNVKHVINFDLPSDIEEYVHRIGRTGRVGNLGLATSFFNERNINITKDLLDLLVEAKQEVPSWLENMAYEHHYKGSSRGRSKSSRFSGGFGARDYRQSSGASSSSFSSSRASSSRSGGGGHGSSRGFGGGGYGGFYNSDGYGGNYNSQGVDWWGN
UniProt Q8IWQ3, sequence (whole entry, looked up): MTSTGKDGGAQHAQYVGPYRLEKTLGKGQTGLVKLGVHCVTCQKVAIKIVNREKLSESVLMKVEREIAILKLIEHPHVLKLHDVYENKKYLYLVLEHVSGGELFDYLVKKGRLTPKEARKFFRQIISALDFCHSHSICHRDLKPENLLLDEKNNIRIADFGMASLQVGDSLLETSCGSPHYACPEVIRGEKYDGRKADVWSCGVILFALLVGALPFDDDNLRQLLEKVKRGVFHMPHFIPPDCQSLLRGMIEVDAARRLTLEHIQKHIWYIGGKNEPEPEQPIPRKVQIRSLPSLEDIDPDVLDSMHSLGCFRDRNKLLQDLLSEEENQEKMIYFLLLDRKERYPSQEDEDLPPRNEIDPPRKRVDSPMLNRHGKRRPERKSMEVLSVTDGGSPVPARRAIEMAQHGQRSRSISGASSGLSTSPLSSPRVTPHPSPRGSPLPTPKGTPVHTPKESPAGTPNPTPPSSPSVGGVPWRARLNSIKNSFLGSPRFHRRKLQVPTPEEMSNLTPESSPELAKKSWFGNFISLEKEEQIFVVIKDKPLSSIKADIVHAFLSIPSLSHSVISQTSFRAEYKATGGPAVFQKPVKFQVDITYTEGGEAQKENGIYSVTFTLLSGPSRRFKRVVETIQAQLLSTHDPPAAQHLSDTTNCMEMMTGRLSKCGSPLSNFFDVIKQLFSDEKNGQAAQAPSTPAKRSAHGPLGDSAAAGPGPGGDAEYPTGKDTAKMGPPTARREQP

Structure (SMILES)	target	observed	action	method	concentration	quantity	value
C=CC(=O)N1CCC(COCC(=O)N2CCN(c3nc(-c4cnc(N)nc4C(F)F)nc(N4CCOC[C@@H]4C)n3)CC2)CC1	Serine/threonine-protein kinase BRSK2 (BRSK2, Homo sapiens, UniProt Q8IWQ3)	binding	–	competition with immobilised ligand	1 µM	remaining binding	100%
FC(F)OC(Cl)C(F)(F)F (stereo not shown)	Cystathionine beta-synthase (CBS, Homo sapiens, UniProt P35520)	binding	–	ITC	–	Kd	16.6 µM
Cc1cnc(-c2ccc(-c3ccc(NC(=O)Nc4c(F)cc(F)cc4F)cc3F)c3c2C(=O)NC3)[nH]1	TRAF2 and NCK-interacting protein kinase (TNIK, Homo sapiens, UniProt Q9UKE5)	binding	–	competition with immobilised ligand	–	Kd	0.0047 µM
COCc1nc2cnc3cc(-c4c(C)noc4C)c(OC[C@H]4CCNC4)cc3c2n1[C@H](C)c1ccccc1	Bromodomain-containing protein 2, BD2 (BRD2, Homo sapiens, UniProt P25440)	binding	–	SPR	–	Kd	3.21 µM
Cc1nn2c(N3CCN(CCO)CC3)cc(-c3ccccc3)nc2c1-c1ccccc1	GTPase KRas (KRAS, Homo sapiens, UniProt P01116)	binding	–	MST	–	Kd	1.9 µM
OC[C@H]1OC(O)[C@H](O)[C@@H](O)[C@@H]1O (stereo partly shown)	ATP-dependent RNA helicase DDX3X (DDX3X, Homo sapiens, UniProt O00571)	binding	–	MST	–	Kd	104 µM
Cc1nc2n(c(=O)c1CCN1CCC(c3noc4cc(F)ccc34)CC1)CCCC2O (stereo not shown)	D(2) dopamine receptor (DRD2, Homo sapiens, UniProt P14416)	binding	–	–	–	Kd	0.00545 µM and 0.00925 µM
CN(C)C(=O)c1cc2cnc(Nc3ccc(C(=O)NCCCCCCOc4cccc5c4C(=O)N(C4CCC(=O)NC4=O)C5=O)cc3)nc2n1C1CCCC1 (stereo not shown)	Aurora kinase A (AURKA, Homo sapiens, UniProt O14965)	binding	–	competition with immobilised ligand	–	Kd	0.0063 µM
CNc1ncc2c(/C=C/C(=O)N3CCC(OC)CC3)nn(Cc3cccc(C(F)(F)F)c3)c2n1	Dual specificity tyrosine-phosphorylation-regulated kinase 2 (DYRK2, Homo sapiens, UniProt Q92630)	enzyme activity	inhibitor	radiometric	1 µM	remaining activity	95%
COc1cc(-c2cncc3c2CN(C)Cc2cc(N4CCNCC4)ccc2-3)cc(OC)c1OC	Calcium/calmodulin-dependent protein kinase type 1D (CAMK1D, Homo sapiens, UniProt Q8IU85)	enzyme activity	inhibitor	–	1 µM	remaining activity	106%
CCO[C@@H](Cc1ccc(OCCc2ccc(OS(C)(=O)=O)cc2)cc1)C(=O)O	Peroxisome proliferator-activated receptor gamma (PPARG, Homo sapiens, UniProt P37231)	binding	–	ITC	–	Kd	0.4 µM
CCCCC(=O)Nc1ccc(-c2ccc3ncn(CCC)c(=O)c3c2)cn1	Protein kinase C eta type (PRKCH, Homo sapiens, UniProt P24723)	binding	–	competition with immobilised ligand	0.5 µM	remaining binding	80%
Cc1cc([C@@H](C)Nc2ccccc2C(=O)O)c2nc(N3CCC(F)(F)CC3)c(C#N)c(=O)n2c1	Activin receptor type-1B (ACVR1B, Homo sapiens, UniProt P36896)	binding	–	competition with immobilised ligand	1 µM	remaining binding	64%
O=C(O)CC[C@H](NC(=O)N[C@@H](CCC(=O)NCCOCCOCCNC(=S)Nc1ccc2c(c1)C(=O)OC21c2ccc(O)cc2Oc2cc(O)ccc21)C(=O)O)C(=O)O	Glutamate carboxypeptidase 2 (FOLH1, Homo sapiens, UniProt Q04609)	cell-free assay	–	FP	–	Kd	0.0009 µM
C=CC1=C(C)C2=Cc3c(C=C)c(C)c4[n]3[Fe]([Cl])[n]3c(c(C)c(CCC(=O)O)c3=CC3=NC(=C4)C(C)=C3CCC(=O)O)=CC1=N2	5-aminolevulinate synthase, erythroid-specific, mitochondrial (Human, UniProt P22557)	binding	–	ITC	–	Kd	0.232 µM
NC(=O)C1=CN([C@@H]2O[C@H](COP(=O)(O)OP(=O)(O)OC[C@H]3O[C@@H](n4cnc5c(N)ncnc54)[C@H](O)[C@@H]3O)[C@@H](O)[C@H]2O)C=CC1	Dihydropteridine reductase (Homo sapiens, UniProt P09417)	binding	–	SPR	–	Kd	0.056 µM

Some of these lines once more:
Structure (SMILES)	target	observed	action	method	concentration	quantity	value
Cc1cc([C@@H](C)Nc2ccccc2C(=O)O)c2nc(N3CCC(F)(F)CC3)c(C#N)c(=O)n2c1	Activin receptor type-1B (ACVR1B, Homo sapiens, UniProt P36896)	binding	–	competition with immobilised ligand	1 µM	remaining binding	64%
CCCCC(=O)Nc1ccc(-c2ccc3ncn(CCC)c(=O)c3c2)cn1	Protein kinase C eta type (PRKCH, Homo sapiens, UniProt P24723)	binding	–	competition with immobilised ligand	0.5 µM	remaining binding	80%
